Earlier results that unrelated publications cite.
Numbers after ± are the reported error.
Sequence of UniProt Q15717 (whole entry, looked up): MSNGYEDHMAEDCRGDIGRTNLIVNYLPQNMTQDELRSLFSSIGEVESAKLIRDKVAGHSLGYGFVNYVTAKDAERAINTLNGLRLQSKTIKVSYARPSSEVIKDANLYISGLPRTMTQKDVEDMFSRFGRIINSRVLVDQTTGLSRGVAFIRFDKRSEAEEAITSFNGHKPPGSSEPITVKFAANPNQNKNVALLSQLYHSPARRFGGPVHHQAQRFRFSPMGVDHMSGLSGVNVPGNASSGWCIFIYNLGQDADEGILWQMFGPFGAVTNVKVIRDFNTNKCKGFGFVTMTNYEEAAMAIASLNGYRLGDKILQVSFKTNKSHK
Sequence of UniProt P63096 (whole entry, looked up): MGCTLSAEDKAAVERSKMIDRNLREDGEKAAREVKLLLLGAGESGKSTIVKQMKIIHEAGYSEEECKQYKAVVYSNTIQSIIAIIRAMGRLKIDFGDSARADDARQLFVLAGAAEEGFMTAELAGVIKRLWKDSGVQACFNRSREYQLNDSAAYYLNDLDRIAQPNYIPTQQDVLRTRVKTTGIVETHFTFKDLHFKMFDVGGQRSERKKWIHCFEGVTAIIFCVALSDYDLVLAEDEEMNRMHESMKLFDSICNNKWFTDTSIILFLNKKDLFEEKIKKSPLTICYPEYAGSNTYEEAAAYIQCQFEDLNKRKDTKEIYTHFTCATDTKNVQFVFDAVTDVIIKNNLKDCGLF

For `O=C(C=CN1C2CCC1c1ncnc(NC3CC3)c1C2)c1ccccc1O` (stereo not shown), the Kd was 0.037 µM (SMARCA2; binding).
`CC[C@H](C)[C@H](NC(=O)CNC(=O)[C@H](CC(=O)O)NC(=O)[C@H](CCCNC(=N)N)NC(=O)[C@@H](NC(=O)[C@H](CC(N)=O)NC(=O)[C@H](CCC(N)=O)NC(=O)CNC(=O)[C@@H](NC(=O)[C@H](CCCCN)NC(=O)[C@H](CCC(=O)O)NC(=O)[C@@H](NC(=O)[C@H](CCCCN)NC(=O)[C@H](CCCCN)NC(=O)[C@H](Cc1ccccc1)NC(=O)[C@H](CC(C)C)NC(=O)[C@H](CCCCN)NC(=O)[C@H](Cc1c[nH]c2ccccc12)NC(=O)[C@@H](N)CCCCN)[C@@H](C)CC)C(C)C)[C@@H](C)CC)C(=O)N[C@H](C(=O)N[C@@H](CCCCN)C(=O)N[C@@H](C)C(=O)NCC(=O)N1CCC[C@H]1C(=O)N[C@@H](C)C(=O)N[C@H](C(=O)N[C@@H](C)C(=O)N[C@H](C(=O)N[C@H](C(=O)NCC(=O)N[C@@H](CCC(N)=O)C(=O)N[C@@H](C)C(=O)N[C@H](C(=O)N[C@@H](CCC(N)=O)C(=O)N[C@H](C(=O)N[C@@H](C)C(=O)N[C@@H](CCCCN)C(N)=O)[C@@H](C)CC)[C@@H](C)O)C(C)C)C(C)C)C(C)C)[C@@H](C)CC` gave a Kd of 1000 µM (membrane binding; POPC bilayers; room temperature).
`CCOC(=O)C1C(OC(c2ccc(Cl)cc2)c2ccc(Cl)cc2)CC2CCC1N2C` (single isomer, unassigned) has a Ki of 1.56 ± 0.091 µM (serotonin transporter).
The IC50 of `CC1=C(C)C(=O)OC(C(C)(O)C2(O)CCC3(O)C4CC5OC56C(O)C=CC(=O)C6(C)C4CCC32C)C1` (stereo not shown) is reported as 1.7 µM (SK-BR-3; cell growth).
`C[C@H](NC(=O)[C@H](Cc1c[nH]cn1)NC(=O)[C@H](CO)NC(=O)[C@@H](N)CC(=O)O)C(=O)N[C@@H](CCCCN)C(=O)N[C@@H](CCCNC(=N)N)C(=O)N[C@@H](Cc1c[nH]cn1)C(=O)N[C@@H](Cc1c[nH]cn1)C(=O)NCC(=O)N[C@@H](Cc1ccc(O)cc1)C(=O)N[C@@H](CCCCN)C(=O)N[C@@H](CCCNC(=N)N)C(=O)N[C@@H](CCCCN)C(=O)N[C@@H](Cc1ccccc1)C(=O)N[C@@H](Cc1c[nH]cn1)C(=O)N[C@@H](CCC(=O)O)C(=O)N[C@@H](CCCCN)C(=O)N[C@@H](Cc1c[nH]cn1)C(=O)N[C@@H](Cc1c[nH]cn1)C(=O)N[C@@H](CO)C(=O)N[C@@H](Cc1c[nH]cn1)C(=O)N[C@@H](CCCNC(=N)N)C(=O)NCC(=O)N[C@@H](Cc1ccc(O)cc1)C(=O)O` has a Kd of 1.5 µM (Porphyromonas gingivalis; binding, radioligand binding; 381).
The Kd of `CC[C@H](C)[C@@H]1NC(=O)[C@H](CCSC)NC(=O)CCCC(=O)NCCCC[C@@H](C(N)=O)NC(=O)[C@H]([C@@H](C)O)NC(=O)CNC(=O)[C@H](C)NC(=O)[C@H](C(C)C)NC(=O)[C@H](Cc2ccccc2)NC(=O)[C@H](CCC(=O)O)NC(=O)[C@H](Cc2ccc(O)cc2)NC(=O)[C@H](Cc2c[nH]c3ccccc23)NC(=O)[C@H]([C@@H](C)O)NC1=O` is reported as 0.0021 µM (Guanine nucleotide-binding protein G(i) subunit alpha-1, GDP-bound (GNAI1, Homo sapiens, UniProt P63096)).
For `CN[C@H](CC(C)C)C(=O)N[C@H]1C(=O)N[C@@H](CC(N)=O)C(=O)N[C@H]2C(=O)N[C@H]3C(=O)N[C@H](C(=O)N[C@H](C(=O)O)c4cc(O)cc(O)c4-c4cc3ccc4O)[C@H](O)c3ccc(c(Cl)c3)Oc3cc2cc(c3O[C@@H]2O[C@H](CO)[C@@H](O)[C@H](O)[C@H]2O[C@H]2C[C@](C)(NCc3ccc(-c4ccc(Cl)cc4)cc3)[C@H](O)[C@H](C)O2)Oc2ccc(cc2Cl)[C@H]1O`, “maximum tolerated dose” read 75 mg/kg (mouse; intravenous).
With `CCCCCn1cc(C(=O)c2ccc3c(c2)CC(C)(C)C3)c2ccccc21` the Ki was 0.0388 ± 0.0198 µM (cannabinoid receptor CB1; binding).
`C[C@H](NC(=O)[C@H](CCC(N)=O)NC(=O)[C@H](C)NC(=O)[C@H](CCCCN)NC(=O)[C@H](CCC(N)=O)NC(=O)[C@H](C)NC(=O)[C@H](CCCCN)NC(=O)[C@H](CCC(N)=O)NC(=O)[C@H](C)NC(=O)[C@H](CCC(N)=O)NC(=O)[C@H](CCCCN)NC(=O)[C@H](C)NC(=O)[C@H](CCC(N)=O)NC(=O)[C@H](CCCCN)NC(=O)[C@H](C)NC(=O)[C@H](CCC(N)=O)NC(=O)[C@H](C)NC(=O)[C@H](CCCCN)NC(=O)[C@H](CCC(N)=O)NC(=O)[C@H](C)NC(=O)[C@H](CCCCN)NC(=O)[C@H](CO)NC(=O)[C@H](Cc1ccc(O)cc1)NC(=O)CNC(=O)CNC(=O)CN)C(=O)N[C@@H](CCCCN)C(=O)N[C@@H](CCC(N)=O)C(=O)N[C@@H](C)C(=O)N[C@@H](CCCCN)C(=O)N[C@@H](CCC(N)=O)C(=O)O` gave a Kd of ~0.5 µM (binding; AA amyloid-laden tissue; high-affinity site).
`CC1=C(C)C(=O)OC(C(C)(O)C2(O)CCC3(O)C4CC5OC56CC=CC(=O)C6(C)C4CCC32C)C1` (stereo not shown) has an IC50 of 0.16 µM (T47D; cell growth).
With `COc1ccc(SC2=CC(=O)C(=O)c3c(-c4c(C)cccc4C)cn(S(=O)(=O)c4ccccc4)c32)cc1` the IC50 was 0.79 µM (ELAV-like protein 1, RRM1-RRM2 domains (ELAVL1, Homo sapiens, UniProt Q15717)).
`CC1(C)S[C@@H]2CS[C@@H](CS)N2[C@H]1C(=O)O` gave a Ki of 10 ± 2 µM (Metallo-beta-lactamase VIM-2 (VIM-2, Escherichia coli, UniProt Q5U7L7); inhibitor).
`O=C(OCC[18F])C1C2CCC(CC1c1ccc(/C=C\I)cc1)N2` (stereo not shown): “time to peak uptake” > 75 min (SERT; HRRT PET; awake rhesus monkey, pons).

Repeated from above:
`CCOC(=O)C1C(OC(c2ccc(Cl)cc2)c2ccc(Cl)cc2)CC2CCC1N2C` (single isomer, unassigned) has a Ki of 1.56 ± 0.091 µM (serotonin transporter).
